Measurements of several laboratories.
A part holds a random share of what one study measured.
UniProt Q9C0B0, sequence (30-357, looked up): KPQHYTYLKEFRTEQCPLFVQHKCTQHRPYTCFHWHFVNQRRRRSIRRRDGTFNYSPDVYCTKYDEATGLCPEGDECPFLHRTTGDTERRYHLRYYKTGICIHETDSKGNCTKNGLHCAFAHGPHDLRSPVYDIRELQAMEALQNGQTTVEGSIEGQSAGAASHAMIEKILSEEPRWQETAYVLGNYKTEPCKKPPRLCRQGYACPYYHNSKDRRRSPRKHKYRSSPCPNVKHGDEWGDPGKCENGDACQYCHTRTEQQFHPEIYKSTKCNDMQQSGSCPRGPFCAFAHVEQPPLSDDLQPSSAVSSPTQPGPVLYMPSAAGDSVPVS

Block 1
Target: Prothrombin, mature alpha-thrombin (F2, Homo sapiens, UniProt P00734)
Method: aptamer microarray, sandwich
Form: DNA with 2'F-ANA
Matrix: in vitro
Tested at: 200 nM
Notes: whole 15-mer aptamer, many near background
Together with: Cy3 exosite-II aptamer, 400 nM
Reading: higher = stronger binding
Measurement: mean fluorescence intensity
Oligonucleotide = GGTTGGTGTGGTTGG (2'F-ANA at 4 6 8 13 14); value = 79.1 a.u.
Oligonucleotide = GGTTGGTGTGGTTGG (2'F-ANA at 2 3 5 6 7 9 11 12 15); value = 121 a.u.
Oligonucleotide = GGTTGGTGTGGTTGG (2'F-ANA at 1 4 5 7 9 10 11 12 14); value = 45.7 a.u.

Block 2
Target: Histone acetyltransferase KAT6A, winged helix 2, GST fusion (KAT6A, Homo sapiens, UniProt Q92794, residues 85-181)
Method: protein binding microarray
Form: double-stranded DNA, one strand shown
Matrix: in vitro
Tested at: not given
Notes: 8-mer, flanks averaged, mean of 2 arrays, mostly near background
Relative to: not given
Reading: higher = stronger binding
Measurement: E-score
Target sequence (chain): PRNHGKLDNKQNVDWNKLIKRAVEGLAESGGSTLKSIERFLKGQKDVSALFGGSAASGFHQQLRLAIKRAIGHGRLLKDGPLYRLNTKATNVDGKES
Oligonucleotide = GTTGGCCA; value = -0.152
Oligonucleotide = AAAGGTAA; value = -0.0808
Oligonucleotide = CAAGGTTC; value = -0.0841

Other studies, line by line
Substance = GGGAGUUCUACAGUCCGACGAUCUAAAUUAGGGCUGCCGUCCGUUCUCACUCCCUGGGCUGCAGACAGCUAGAAGAUUUUAUCUAGCUUAUACAAGGCUGCUGGUGUUCCCUCUUUUUUUCCACGAGGGUGUUUUUGGCUGCACAACAGAGGAUUGAGCAUCA; target = RING finger protein unkempt homolog, zinc fingers 1-6, GST-SBP tag (UNK, Homo sapiens, UniProt Q9C0B0, residues 30-357); assay = RNA Bind-n-Seq; test system = RNA, in vitro; conditions = not given, RNA with constant flanks, human-mouse chimeric sites, ends assumed; scale = relative to: input RNA pool, higher = stronger binding; measurement = bound/input enrichment; value = 0.637 ratio
Substance = PhoQ, residues 284 288 289 292 302 303 SSCLAV; target = PhoP, residues 12 14 15 18 19 VQGLL (Escherichia coli, UniProt P23836); assay = Sort-seq, refers to: YFP reporter; test system = E. coli; conditions = PhoQ-PhoP variant library, together with: 10 µM Mg2+; scale = relative to: high Mg2+ state, higher = stronger signaling; measurement = fold induction; value = 11.5
Substance = GGGAGUUCUACAGUCCGACGAUCAUAAUCACUCUAAUUGUAAUCUGAAUAAAGUGUAACAUUGUGUAGCUUUUUUGUAUAAAAUAGACAAAUAGAAAUGGUCCAAUUAGUUUCCUUUUUAAUAUGCUUAAAAUAAGCAGGUGGCAACAGAGGAUUGAGCAUCA; target = RING finger protein unkempt homolog, zinc fingers 1-6, SBP tag (UNK, Homo sapiens, UniProt Q9C0B0, residues 30-357); assay = RNA Bind-n-Seq; test system = RNA, in vitro; conditions = 100 nM, RNA with constant flanks, vertebrate orthologous sites, ends assumed; scale = relative to: input RNA pool, higher = stronger binding; measurement = bound/input enrichment; value = 2.38 ratio

Excerpt of the above (block 1):
Oligonucleotide = GGTTGGTGTGGTTGG (2'F-ANA at 2 3 5 6 7 9 11 12 15); value = 121 a.u.
